Published values collected from several papers.
Every numbered part comes from another study and shows a few of its results, in no order.
Sequence of UniProt P10721 (whole entry, unmodified, looked up): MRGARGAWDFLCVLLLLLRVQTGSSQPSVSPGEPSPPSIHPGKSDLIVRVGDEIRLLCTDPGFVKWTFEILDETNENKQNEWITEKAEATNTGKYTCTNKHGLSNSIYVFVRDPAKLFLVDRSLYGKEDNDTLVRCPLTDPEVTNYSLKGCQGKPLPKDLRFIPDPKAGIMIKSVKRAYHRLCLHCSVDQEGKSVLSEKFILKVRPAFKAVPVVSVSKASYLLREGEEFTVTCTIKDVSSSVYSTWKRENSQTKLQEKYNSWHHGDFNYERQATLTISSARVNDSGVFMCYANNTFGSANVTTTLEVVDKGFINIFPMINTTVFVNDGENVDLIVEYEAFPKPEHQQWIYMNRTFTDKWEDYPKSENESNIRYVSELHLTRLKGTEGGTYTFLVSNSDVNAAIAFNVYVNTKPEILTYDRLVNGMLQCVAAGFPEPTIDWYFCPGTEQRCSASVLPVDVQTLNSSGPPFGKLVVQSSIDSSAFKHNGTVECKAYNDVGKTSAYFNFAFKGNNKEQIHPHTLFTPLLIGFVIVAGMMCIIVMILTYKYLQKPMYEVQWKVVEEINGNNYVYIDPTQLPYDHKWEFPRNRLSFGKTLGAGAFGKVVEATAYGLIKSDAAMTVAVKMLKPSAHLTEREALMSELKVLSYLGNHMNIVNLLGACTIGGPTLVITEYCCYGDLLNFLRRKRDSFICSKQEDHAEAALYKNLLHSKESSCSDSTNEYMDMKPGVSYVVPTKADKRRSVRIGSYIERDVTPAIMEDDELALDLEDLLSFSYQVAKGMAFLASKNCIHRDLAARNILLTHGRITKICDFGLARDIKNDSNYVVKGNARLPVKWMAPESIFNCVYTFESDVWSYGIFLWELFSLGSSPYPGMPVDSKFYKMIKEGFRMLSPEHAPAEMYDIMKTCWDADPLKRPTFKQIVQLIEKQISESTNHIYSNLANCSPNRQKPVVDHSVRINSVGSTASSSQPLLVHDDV
Sequence of UniProt P0C264 (whole entry, looked up): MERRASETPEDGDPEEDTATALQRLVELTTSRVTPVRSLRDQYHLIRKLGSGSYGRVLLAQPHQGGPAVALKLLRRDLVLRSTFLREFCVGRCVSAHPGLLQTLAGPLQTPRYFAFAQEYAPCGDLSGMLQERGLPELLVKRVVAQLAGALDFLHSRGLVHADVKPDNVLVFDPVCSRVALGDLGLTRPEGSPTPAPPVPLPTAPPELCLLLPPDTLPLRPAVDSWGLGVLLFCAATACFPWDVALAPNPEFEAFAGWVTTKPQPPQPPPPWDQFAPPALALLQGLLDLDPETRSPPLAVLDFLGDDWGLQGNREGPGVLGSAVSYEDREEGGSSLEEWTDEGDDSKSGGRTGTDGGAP
Sequence of UniProt Q16620 (whole entry, looked up): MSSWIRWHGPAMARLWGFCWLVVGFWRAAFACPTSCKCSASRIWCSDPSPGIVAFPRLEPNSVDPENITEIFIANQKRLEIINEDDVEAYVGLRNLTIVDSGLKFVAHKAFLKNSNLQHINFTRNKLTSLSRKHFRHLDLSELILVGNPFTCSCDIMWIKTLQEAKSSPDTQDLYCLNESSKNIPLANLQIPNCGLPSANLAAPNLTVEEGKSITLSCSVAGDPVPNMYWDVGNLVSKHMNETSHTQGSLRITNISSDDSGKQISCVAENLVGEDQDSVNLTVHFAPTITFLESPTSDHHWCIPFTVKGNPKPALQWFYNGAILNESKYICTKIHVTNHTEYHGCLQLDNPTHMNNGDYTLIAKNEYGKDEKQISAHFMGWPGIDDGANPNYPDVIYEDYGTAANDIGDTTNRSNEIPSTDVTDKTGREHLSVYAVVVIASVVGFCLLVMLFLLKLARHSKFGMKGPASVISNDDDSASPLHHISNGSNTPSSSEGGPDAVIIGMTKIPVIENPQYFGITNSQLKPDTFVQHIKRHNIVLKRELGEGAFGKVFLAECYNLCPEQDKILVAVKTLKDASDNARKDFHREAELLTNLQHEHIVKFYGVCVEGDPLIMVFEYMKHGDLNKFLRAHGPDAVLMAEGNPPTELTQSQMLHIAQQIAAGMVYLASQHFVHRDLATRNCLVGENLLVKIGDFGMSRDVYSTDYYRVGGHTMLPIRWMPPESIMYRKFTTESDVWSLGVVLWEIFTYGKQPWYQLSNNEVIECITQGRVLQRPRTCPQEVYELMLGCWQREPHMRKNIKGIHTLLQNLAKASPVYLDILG
Sequence of UniProt P22455 (whole entry, looked up): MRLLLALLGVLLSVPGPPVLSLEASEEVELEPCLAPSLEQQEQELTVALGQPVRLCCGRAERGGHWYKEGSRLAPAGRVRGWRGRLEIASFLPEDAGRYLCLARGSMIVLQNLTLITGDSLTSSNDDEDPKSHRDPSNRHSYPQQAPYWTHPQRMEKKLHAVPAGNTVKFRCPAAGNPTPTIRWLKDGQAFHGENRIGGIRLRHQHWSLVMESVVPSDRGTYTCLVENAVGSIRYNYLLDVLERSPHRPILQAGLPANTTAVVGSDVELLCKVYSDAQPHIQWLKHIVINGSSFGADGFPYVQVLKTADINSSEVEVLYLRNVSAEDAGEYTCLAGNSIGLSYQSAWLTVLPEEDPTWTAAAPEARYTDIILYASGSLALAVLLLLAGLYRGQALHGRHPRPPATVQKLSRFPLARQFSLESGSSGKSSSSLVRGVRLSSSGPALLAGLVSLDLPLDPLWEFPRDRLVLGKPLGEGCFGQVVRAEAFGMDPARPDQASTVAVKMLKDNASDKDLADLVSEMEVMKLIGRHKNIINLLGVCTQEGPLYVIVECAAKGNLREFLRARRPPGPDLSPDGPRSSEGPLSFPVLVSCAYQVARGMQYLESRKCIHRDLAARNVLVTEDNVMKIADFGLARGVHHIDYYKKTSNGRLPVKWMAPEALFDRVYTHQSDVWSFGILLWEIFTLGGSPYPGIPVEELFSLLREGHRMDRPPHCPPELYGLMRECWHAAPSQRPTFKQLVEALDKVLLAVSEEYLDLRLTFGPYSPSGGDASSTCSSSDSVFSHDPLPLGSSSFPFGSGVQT
Sequence of UniProt O14733 (whole entry, looked up): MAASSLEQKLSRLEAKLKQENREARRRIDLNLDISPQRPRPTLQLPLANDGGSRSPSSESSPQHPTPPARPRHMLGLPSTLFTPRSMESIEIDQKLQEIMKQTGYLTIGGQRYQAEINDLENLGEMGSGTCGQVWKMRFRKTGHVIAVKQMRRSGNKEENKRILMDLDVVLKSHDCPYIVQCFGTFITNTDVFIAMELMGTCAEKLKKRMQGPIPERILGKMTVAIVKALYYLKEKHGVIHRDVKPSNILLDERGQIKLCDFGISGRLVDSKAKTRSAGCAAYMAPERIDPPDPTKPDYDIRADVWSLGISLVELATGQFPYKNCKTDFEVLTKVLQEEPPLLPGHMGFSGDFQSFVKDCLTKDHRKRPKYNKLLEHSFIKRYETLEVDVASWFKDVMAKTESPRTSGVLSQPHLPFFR
Sequence of UniProt P51812 (whole entry, looked up): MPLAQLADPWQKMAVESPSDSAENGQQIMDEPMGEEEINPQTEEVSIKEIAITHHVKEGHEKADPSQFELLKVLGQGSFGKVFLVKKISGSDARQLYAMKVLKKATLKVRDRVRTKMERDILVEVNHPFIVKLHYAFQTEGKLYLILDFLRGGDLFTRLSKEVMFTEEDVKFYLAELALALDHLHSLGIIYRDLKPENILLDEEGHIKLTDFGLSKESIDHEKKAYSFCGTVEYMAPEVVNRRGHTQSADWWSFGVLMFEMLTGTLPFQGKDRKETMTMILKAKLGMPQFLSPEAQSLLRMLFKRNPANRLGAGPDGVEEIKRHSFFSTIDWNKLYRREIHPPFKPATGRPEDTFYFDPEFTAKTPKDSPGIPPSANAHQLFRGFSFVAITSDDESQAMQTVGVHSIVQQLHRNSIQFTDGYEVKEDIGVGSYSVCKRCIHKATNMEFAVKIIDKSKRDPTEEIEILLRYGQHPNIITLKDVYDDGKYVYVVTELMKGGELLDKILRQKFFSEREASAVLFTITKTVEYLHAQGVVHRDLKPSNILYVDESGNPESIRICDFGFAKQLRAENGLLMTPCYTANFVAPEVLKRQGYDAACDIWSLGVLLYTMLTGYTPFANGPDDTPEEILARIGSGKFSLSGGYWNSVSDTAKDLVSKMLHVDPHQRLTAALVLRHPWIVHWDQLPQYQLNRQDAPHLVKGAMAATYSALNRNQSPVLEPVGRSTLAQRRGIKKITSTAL
Sequence of UniProt Q16584 (whole entry, looked up): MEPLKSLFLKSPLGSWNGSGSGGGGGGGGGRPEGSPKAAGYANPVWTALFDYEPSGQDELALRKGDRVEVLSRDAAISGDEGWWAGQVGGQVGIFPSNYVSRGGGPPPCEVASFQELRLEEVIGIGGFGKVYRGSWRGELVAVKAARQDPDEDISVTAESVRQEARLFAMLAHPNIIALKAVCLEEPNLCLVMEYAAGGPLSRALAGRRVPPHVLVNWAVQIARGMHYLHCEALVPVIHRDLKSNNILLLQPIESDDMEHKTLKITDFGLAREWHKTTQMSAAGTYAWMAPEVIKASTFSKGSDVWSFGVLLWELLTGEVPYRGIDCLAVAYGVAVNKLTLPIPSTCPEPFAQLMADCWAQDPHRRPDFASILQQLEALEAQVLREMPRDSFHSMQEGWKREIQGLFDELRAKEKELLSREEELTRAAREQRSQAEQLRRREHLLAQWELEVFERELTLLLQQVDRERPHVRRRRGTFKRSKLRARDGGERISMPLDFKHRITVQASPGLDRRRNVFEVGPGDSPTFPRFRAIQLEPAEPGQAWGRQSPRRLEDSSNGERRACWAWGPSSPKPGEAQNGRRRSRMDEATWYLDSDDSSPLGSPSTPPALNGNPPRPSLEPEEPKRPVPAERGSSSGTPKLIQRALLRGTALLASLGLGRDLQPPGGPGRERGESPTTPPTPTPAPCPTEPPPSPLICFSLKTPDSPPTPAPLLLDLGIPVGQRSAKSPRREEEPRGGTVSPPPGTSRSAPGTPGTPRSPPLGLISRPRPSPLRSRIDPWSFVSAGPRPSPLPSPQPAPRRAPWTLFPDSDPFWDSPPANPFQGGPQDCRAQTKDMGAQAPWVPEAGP

Sample 1
Target: PABPC1L2, full length, GST fusion (mouse, UniProt A0ABA7IW68)
Technique: RNAcompete
Form: RNA
Sample: in vitro
Concentration: 20 nM
Setting: 7-mer, probes averaged, single round
Relative to: mean of 7-mers
Direction: higher = stronger binding
Measurement: 7-mer Z-score
Residues (chain): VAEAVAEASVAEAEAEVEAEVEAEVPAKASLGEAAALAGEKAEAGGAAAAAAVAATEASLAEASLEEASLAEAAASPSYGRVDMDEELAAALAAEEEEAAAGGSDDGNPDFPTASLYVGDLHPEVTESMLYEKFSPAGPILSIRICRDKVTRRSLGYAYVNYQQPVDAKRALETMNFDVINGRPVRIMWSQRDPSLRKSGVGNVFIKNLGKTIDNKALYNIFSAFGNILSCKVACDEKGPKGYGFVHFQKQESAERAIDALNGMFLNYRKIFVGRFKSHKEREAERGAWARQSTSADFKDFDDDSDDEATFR
UAUUGGA: -0.124
GGCUUCG: -0.13
UGUCAAA: 0.149
UUUUGAU: -0.117
AAGUGCA: 0.1
AAGCUCA: -0.0409
UUCUGCC: -0.217
CGACCCG: -0.219

Sample 2
Target: Interferon regulatory factor 5, full length, phosphomimetic (IRF5, Homo sapiens, UniProt Q13568-2, residues 1-514, S451D/S453D/S456D/S462D)
Technique: protein-binding microarray
Form: double-stranded DNA, one strand shown
Sample: in vitro
Concentration: 940 nM top
Setting: 60-bp whole probe
With: salmon DNA 0.4 mg/ml
Relative to: random background probes
Direction: higher = stronger binding
Measurement: fitted relative affinity
Constant ends, left off below: GCCTAGCAC … GTCTTGATTCGCTTGACGCTGCTG
TTAGGTATCGACACTGGGGTAGTGCTA: 5.16 z-score
TTAGGTCTCCTTTTCCTCTAGTGCTAG: 0.63 z-score
TCATATCTAAGATTCTAACTGTGCTAG: 0.269 z-score
TTAGGACGGGGTATCGGTTAGTGCTAG: 3.85 z-score
GACGATTTCTGGTTTCGAGACGTGCTA: 4.03 z-score
AAACCATCCTGTATGGATGTGTGCTAG: -0.624 z-score
CTGTTTTTGCTTTCTTTTTGGTGCTAG: 2.56 z-score
TTAGGTTTCGGTCTCTGTTAGTGCTAG: 14.1 z-score

Sample 3
Species: human
Sample: microsomes or S9
Concentration: 2 µM
Time: 0.5 h
Measurement: remaining compound
OC(CNc1ncnc2nc[nH]c12)c1ccc2ccccc2c1 (stereo not shown): 78.6%
COc1ccc(Nc2nnc(-c3ccc(C)c(S(=O)(=O)NCc4ccccn4)c3)c3ccccc23)cc1C(N)=O: 1.79%
CCCS(=O)(=O)N1CCC(Oc2nccnc2N2CCOCC2)C1 (stereo not shown): 95.2%
CC(C)Cn1c(=O)c2ccc(C(=O)NC3CCCCC3)cc2n2c(=O)n(Cc3ccccc3)nc12: > 100%

Sample 4
SMILES: CC(=O)Nc1c(C(C)=O)c(=O)n(C)c2nc(-c3ccc(Cl)cc3Cl)c(-c3ccc(Cl)cc3)cc12
Effect on: cell-free assay
Technique: competition with immobilised ligand
Concentration: 1 µM
Measurement: remaining binding
EPHB1 (Homo sapiens, UniProt P54762): 100%
KIT (Homo sapiens, UniProt P10721, A829P): 100%
Ribosomal protein S6 kinase alpha-3, N-terminal kinase domain (RPS6KA3, Homo sapiens, UniProt P51812): 90%
NTRK2 (Homo sapiens, UniProt Q16620): 100%
PAK2 (Homo sapiens, UniProt Q13177): 100%
MAP2K7 (Homo sapiens, UniProt O14733): 100%
STK38 (Homo sapiens, UniProt Q15208): 93%
FGFR4 (Homo sapiens, UniProt P22455): 100%
EGFR (Homo sapiens, UniProt P00533, L861Q): 100%
CIT (Homo sapiens, UniProt O14578): 100%
MAP3K11 (Homo sapiens, UniProt Q16584): 100%
Tyrosine-protein kinase ABL1, non-phosphorylated (ABL1, Homo sapiens, UniProt P00519, H396P): 100%
Tyrosine-protein kinase ABL1, phosphorylated (ABL1, Homo sapiens, UniProt P00519, M351T): 100%
BMX (Homo sapiens, UniProt P51813): 100%
SBK3 (Homo sapiens, UniProt P0C264): 100%
KIT (Homo sapiens, UniProt P10721, T670I/V559D): 100%

Other studies, line by line
CC(C)n1cnc(-c2ccc(F)cc2)c1-c1ncc(C(=O)Nc2ccc(N3CCN(C)CC3)cc2)[nH]1
patients with TEAE (phase 2a trial; idiopathic pulmonary fibrosis patients; oral, 30 mg once daily, ESR increased, grade 1): 0%
